Published values gathered from unrelated publications.
Parts stem from different laboratories: compare values within a part only.

Block 1
Target: RNA binding protein fox-1 homolog 2, RRM domain, GST-SBP tag (RBFOX2, Homo sapiens, UniProt O43251-10, residues 100-194)
Technique: RNA Bind-n-Seq
Form: RNA
Medium: in vitro
Tested at: 365 nM
Setting: natural RNA segment, single round, ends assumed
Reference: no-protein control
Direction: higher = stronger binding
Endpoint: RBNS enrichment (R)
Shared flanks, not repeated: GGGAGUUCUACAGUCCGACGAUC … UGGAAUUCUCGGGUGCCAA
Construct (chain): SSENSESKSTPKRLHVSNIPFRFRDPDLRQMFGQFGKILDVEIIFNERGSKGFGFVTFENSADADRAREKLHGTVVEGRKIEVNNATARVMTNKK
Strand = CCUCCGUGCUGUCAGUGUGGUGUGCUUUCUGCAUGGUUAUAUACUACUAGUAACUUUAUCAAAUUUCAAAUUACAUGGUAAAAGAUCUGUAAAGGCUGCAUCCAUGUUAG; result = 1.07
Strand = UGGACCUUGAGCAACUGUGCACGCUUCACUCUAAUAGCAUGGUUUGGCCAGUGUAUUAGCUCUCAAGUUCUUUCCUCAAUUGACUUCUGCUAUUAAAGUAAUGAUUUCAU; result = 3.57
Strand = GCAGGCUUCUUAUGCCGUUGGUAUACAGGGCAGGAAAGAGAGGAAUAAAGGGAGAGAGCAGUGUGGAAACCACGGUGGUUUUGCUUUGUUCUUACUAGGUUUUGGUGCCA; result = 0.44
Strand = UGGGACUUUAUUUUCACAUGUUAAAUGCUGGAAUAUAUUAUGAAAAUGUUUUCAAGAAAUCACUUAAGUGUUCAUAGACCAGUAUUUCUGACAGGUAAAAUGCUAAAAUA; result = 0.448
Strand = GCUCACUUAGGCAGGAAUGGUCUUACCUUUUAAAAGCUUGUGGGAAACUGAAUUUGAAAUGACAAAAUGUCAAGUAUUAAAGCUGGUAUUUAAGAUGCUUGUAAAUAUUA; result = 0.368
Strand = GGUUUUCUCUUUGGUGGUUUCUAAAGUGCCUUAUCUGCAAACAACUUCUUUUCUCCUUCAGGAACUGUGAAUGGCUAGAAGAAGGAGCUCAGUAAACUAGAAGUCCAGGG; result = 0.392
Strand = UCUAGAGAAGGAUUCCUGGAUCUAGCUGGUCACGACGAUGUUUUCACCAAGGUCACAGGAGCAUUGCGUCGCUGAUGGGGUUGAAGUUUGGUUUGGUUCUUGUUUCAGCC; result = 0.286
Strand = CGGCCGUUUCCUUUCUUUAGCCAGCCGUCCUGGUACUGUAGCUUAGGGGUUGAUGGUGGAUGAAAUUGAUUUCUGGCUGGUUACUAAGGUGCCUGCUAGCCAUUGUAUAA; result = 0.678
Strand = GGCAGCCCCAUCGAGCUGGACUGACUGGCCAGGCCACGUGGAGACACCACGGUCGACGACGGCUGGAGGGACGUUUCAGAGGCGAGUCCUGGGUGGCUCCUCGCCUUGGG; result = 0.528
Strand = UGCCCUCCUGAGCUCCCACCCAGGCAUCUCCAGUGCUCAUGAUCAUGUGUCCCCCAACUCCACCCCUCACAGUUUGGGCCUGUUUCUGGCAAAGAGUCAGGAAGGUUACU; result = 0.59
Strand = CUCCUCGCAUCGUGAGCUGAGGCUGCAGCAUUGGAACAAAACAGCAUUACAUCACUUUUCCUUUAAUUUUUUUUUCCUUUUGUUUUGUUGUUGUUUGUUGUUCAUUUAAA; result = 4.75
Strand = UCAUUAACUAAGAAUAAUAAAUUUGCUCCUAUCCUGGGUCACGUGCCACGGUAAGAUGUAUAGUAUGGCCAUCCACACUAAUUGUAGGAGGACAGCUAAAUGGACAGUCA; result = 0.37

Block 2
Target: Histone acetyltransferase KAT6A, both winged helices, GST fusion (KAT6A, Homo sapiens, UniProt Q92794, residues 1-181)
Technique: protein binding microarray
Form: double-stranded DNA, one strand shown
Medium: in vitro
Tested at: not given
Setting: 8-mer, flanks averaged, mean of 2 arrays, mostly near background
Reference: not given
Direction: higher = stronger binding
Endpoint: E-score
Target sequence (chain): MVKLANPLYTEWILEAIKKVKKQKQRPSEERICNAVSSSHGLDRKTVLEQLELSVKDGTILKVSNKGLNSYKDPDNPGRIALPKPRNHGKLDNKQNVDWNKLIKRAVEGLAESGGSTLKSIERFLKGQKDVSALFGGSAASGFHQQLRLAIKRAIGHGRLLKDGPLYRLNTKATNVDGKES
Strand = ACGTGCCC; result = 0.0458
Strand = GCAGTTCC; result = 0.103
Strand = GACTCGAC; result = -0.107
Strand = CGTTAGAA; result = 0.0769
Strand = TGATGGAA; result = -0.107
Strand = CTCAGGTC; result = 0.0497
Strand = TCAGCAGA; result = -0.183
Strand = ACAAGGAG; result = 0.0752
Strand = GGATTCGA; result = -0.0665
Strand = AGTGCGCC; result = 0.23
Strand = CCGAATCC; result = 0.113
Strand = AATACGCG; result = 0.271
Strand = CCTGGGAA; result = 0.0175
Strand = GTAGGAAA; result = -0.0991
Strand = AGATCTTC; result = 0.0173
Strand = CTGCGAAA; result = -0.0516
Strand = AGAAATGG; result = -0.0856
Strand = ACGCGAAG; result = 0.157
Strand = GATGAGAA; result = -0.157
Strand = ACTAGTTC; result = -0.0425
Strand = CTGCGATA; result = -0.0478
Strand = AGCGGGCC; result = 0.239
Strand = CTCCCAAG; result = -0.204
Strand = AGCGCCGC; result = 0.353
Strand = CGTGACTC; result = 0.0198

Block 3
Target: Prothrombin, mature alpha-thrombin (F2, Homo sapiens, UniProt P00734)
Technique: aptamer microarray, sandwich
Form: DNA with 2'F-ANA
Medium: in vitro
Tested at: 200 nM
Setting: whole 15-mer aptamer, many near background
Added: Cy3 exosite-II aptamer, 400 nM
Direction: higher = stronger binding
Endpoint: mean fluorescence intensity
Strand: GGTTGGTGTGGTTGG
Modification = 2'F-ANA at 1 3 5 7 10 12 13; result = 47.9 a.u.
Modification = 2'F-ANA at 1 2 3 4 5 6 7 10 11 12; result = 53.2 a.u.
Modification = 2'F-ANA at 1 4 5 6 11 12 13 14 15; result = 61 a.u.
Modification = 2'F-ANA at 3 5 7 8 11 15; result = 124 a.u.
Modification = 2'F-ANA at 1 5 7 9 11 12 14 15; result = 46.7 a.u.
Modification = 2'F-ANA at 1 2 3 6 7 8 11 13; result = 187 a.u.
Modification = 2'F-ANA at 1 5 6 7 9 12 14 15; result = 43.9 a.u.
Modification = 2'F-ANA at 1 2 3 4 7 9 10 13 15; result = 64.2 a.u.
Modification = 2'F-ANA at 3 5 8 11 14; result = 61 a.u.
Modification = 2'F-ANA at 1 3 7 9 10 12 13 14 15; result = 67.3 a.u.
Modification = 2'F-ANA at 1 2 5 6 7 8 12; result = 115 a.u.
Modification = 2'F-ANA at 2 3 4 5 7 10 11 12; result = 54 a.u.
Modification = 2'F-ANA at 1 3 4 9 11 12; result = 355 a.u.
Modification = 2'F-ANA at 1 2 5 8 9 10 11 12 14; result = 45.3 a.u.
Modification = 2'F-ANA at 2 3 5 6 7 11 12 14; result = 53.6 a.u.
Modification = 2'F-ANA at 3 4 5 7 14 15; result = 68.4 a.u.

Block 4
Target: Fragile X messenger ribonucleoprotein 1, C-terminal low-complexity region (Fmr1, Mus musculus, UniProt P35922)
Technique: RNA Bind-n-Seq
Form: RNA
Medium: in vitro
Tested at: 200 nM
Setting: whole 134-nt RNA, ends assumed
Added: 150 mM LiCl
Reference: input library
Direction: higher = stronger binding
Endpoint: log2 enrichment
All molecules: 7-deaza-guanosine replaces G
Shared flanks, not repeated: GGGAGUUCUACAGUCCGACGAUC … UGGAAUUCUCGGGUGUCAAGG
Strand = AAGUCCUGUGCUACACAUCGUAUGUACCGAAUCGGAAAGGAAAAAAAGGAAAAAGGAAAGUAUUAUGUUACGCCGUUCGGAUCUGCACUU; result = -1.17
Strand = UAGCCAAGAGUCGAAGCUAAACCAGAAGUUCAAUCUCAGCCACCUCGUGUGCGUGAACAACGACCUAGAGAACGACCUGGUUUUCCUCCU; result = 0.157
Strand = UGGGAGGUGUAUUUUGUUUAUUUUUUUAGCUCAUUUCCAGGGGUGGGAAUUUUUUUUUAAUAUGUGUCAUGAAUAAAGUUGUUUUUGAAA; result = 0.457
Strand = UAACUUUAGAGGAGGAUCUGAUGGAUAUGGCAGUGGACGUGGAUUUGGGGAUGGCUAUAAUGGCUAUGGAGGAGGACCUGGAGGUGGCAA; result = 0.712
Strand = CACUGACAACACGCACCCACACAGACACAGAGGGAAGGGGUUGGGAUGGGGACAGGGUGCACAGCAGGGCGGGGUAGGACCCCAGCCCCU; result = -0.227
Strand = CACAGACAACACGCACCCACACAGACACAGAGGGAAGGGGUUGGGUUGGGGACAGGGUGCACAGCAGGGCGGGGUAGGACCCCAGCCCCU; result = -0.319
Strand = UGGGAGGUGGAUUUUGUUUAUUUUUUUAGCUCAUUUCCAGGGGUGGGAAUUUUUUUUUAAUAUGUGUCAUGAAUAAAUUUGUUUUUGAAA; result = 0.284
Strand = ACCAUGCAGGUGGGCAUCUUUGGGAAGUGGGGCAAGGGGUGGAUAGGGAGGGGGGUAACACUUUGGGAACAGGUGGUCCCAGGUCGUUUC; result = 1.01
Strand = GUCCUGUGCUACACAUCGUAUGUACCGAAUCGGGAAAAAAAGGGAGGGAAAAAAAGGGAAAGUAUUAUGUUACGCCGUUCGGAUCUGCAC; result = 0.704
Strand = UCCUGUGCUACACAUCGUAUGUACCGAAUCGGGGAAAAAAAGGGGUUUUUGGGGAGGGGAAAGUAUUAUGUUACGCCGUUCGGAUCUGCA; result = -0.479
Strand = GUCCUGUGCUACACAUCGUAUGUACCGAAUCGGGGUUUGGGGAGGGGUUUUUUUGGGGAAAGUAUUAUGUUACGCCGUUCGGAUCUGCAC; result = 0.0759

A few entries again (block 3):
Modification = 2'F-ANA at 1 2 5 6 7 8 12; result = 115 a.u.
Modification = 2'F-ANA at 1 2 5 8 9 10 11 12 14; result = 45.3 a.u.
Modification = 2'F-ANA at 2 3 5 6 7 11 12 14; result = 53.6 a.u.
Modification = 2'F-ANA at 3 5 7 8 11 15; result = 124 a.u.
Modification = 2'F-ANA at 3 5 8 11 14; result = 61 a.u.
Modification = 2'F-ANA at 2 3 4 5 7 10 11 12; result = 54 a.u.
Modification = 2'F-ANA at 1 5 7 9 11 12 14 15; result = 46.7 a.u.
